Results pooled from the literature.
A part holds a random share of what one study measured.

Set 1 — method: universal PBM; molecule type: double-stranded DNA, one strand shown; medium: in vitro; concentration: not given; direction: higher = stronger binding
Target: Sal-like protein 4, full length isoform B (SALL4, Homo sapiens, UniProt Q9UJQ4-2, residues 1-616)
Setting: 8-mer, flanks averaged, mean of replicates
Strand | E-score
AGGTTCAT | -0.039
TAAGTCCA | 0.00966
CTCCCCTC | -0.301
CCTTCCGA | -0.0181
GGTGGATA | 0.0211
ACATAAAC | 0.331
AGCAATAT | 0.384
CAGGGTCC | -0.241
GTGCTGCA | -0.0706
AACATGAT | 0.255
AGGGGAAA | 0.0149
CTTACACC | -0.135
CACTACGA | 0.0413
CTTTGGGA | -0.0017
AGACTGTC | -0.0219
GACTTTGA | 0.12
AGTCTAGA | 0.0216
AACAGCGC | -0.177
GTGAGGTA | -0.0706

Set 2 — method: protein binding microarray; molecule type: double-stranded DNA, one strand shown; medium: in vitro; concentration: not given; relative to: not given; direction: higher = stronger binding
Target: Histone acetyltransferase KAT6A, winged helix 2, GST fusion (KAT6A, Homo sapiens, UniProt Q92794, residues 85-181)
Setting: 8-mer, flanks averaged, mean of 2 arrays, mostly near background
Target sequence (chain): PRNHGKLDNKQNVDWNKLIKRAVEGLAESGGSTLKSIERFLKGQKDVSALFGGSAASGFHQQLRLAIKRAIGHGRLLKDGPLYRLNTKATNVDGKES
Strand | E-score
GATTCGGA | 0.156
CCGCGAGG | 0.227
AATCCTTG | 0.0175
GTCGCGTA | 0.0617
GGCGTCCC | 0.109
GAATGGTC | -0.123
AAACATAT | -0.000805
CAGCCTGC | 0.11
ACAAACTG | 0.0569
ATATTGCC | -0.0587
AGGGAACG | -0.0593
CAGCGAAA | 0.0839
AAGCCTCA | -0.0362
GAGTATAC | -0.0378
ACGCGCTC | 0.134
GAACGTAC | -0.201
CCAGGGGA | 0.0358
CTCACTCA | 0.0554
CCCGGTAC | -0.0177
GCGTCAGC | 0.0202
CATCCAAC | -0.0649
TCCAATAA | 0.046
AATACACG | -0.178
AGCAGTTC | 0.0223
GTTGTCCA | -0.138

Set 3 — method: aptamer microarray, sandwich; molecule type: DNA with 2'F-ANA; medium: in vitro; concentration: 200 nM; with: Cy3 exosite-II aptamer, 400 nM; direction: higher = stronger binding; strand: GGTTGGTGTGGTTGG
Target: Prothrombin, mature alpha-thrombin (F2, Homo sapiens, UniProt P00734)
Setting: whole 15-mer aptamer, many near background
Modification | mean fluorescence intensity [a.u.]
2'F-ANA at 1 2 4 11 14 | 49.3
2'F-ANA at 1 5 12 14 | 44.9
2'F-ANA at 3 4 5 7 8 11 | 108
2'F-ANA at 1 2 4 5 6 9 11 15 | 50.4
2'F-ANA at 1 3 6 7 8 9 11 13 14 | 156
2'F-ANA at 1 2 5 9 11 15 | 52.3
2'F-ANA at 1 4 5 9 11 13 | 53.1
2'F-ANA at 1 5 6 9 12 | 226
2'F-ANA at 7 8 9 10 11 13 15 | 140
2'F-ANA at 2 3 4 6 7 9 10 12 13 14 15 | 145
2'F-ANA at 1 3 4 5 8 10 13 14 | 45.8
2'F-ANA at 1 2 3 5 11 13 | 70.3
2'F-ANA at 1 3 4 5 10 13 14 | 44.5
2'F-ANA at 4 7 9 10 11 12 14 15 | 63.9
2'F-ANA at 1 6 7 10 12 15 | 68.4
2'F-ANA at 1 5 7 10 14 15 | 55.2
2'F-ANA at 1 10 11 12 13 | 67.1
2'F-ANA at 1 5 8 9 11 12 15 | 92.3
2'F-ANA at 1 2 5 7 9 10 13 | 41.9
2'F-ANA at 4 5 6 9 11 12 13 14 15 | 51.9
2'F-ANA at 3 6 7 8 9 15 | 983
2'F-ANA at 1 2 7 8 10 11 13 15 | 50.9
2'F-ANA at 3 6 8 9 10 12 13 | 457
2'F-ANA at 2 3 4 5 7 9 10 14 | 48.2
2'F-ANA at 2 4 5 7 11 14 | 56.2

Set 4 — method: RNA Bind-n-Seq; molecule type: RNA; medium: in vitro; concentration: 365 nM; relative to: no-protein control; direction: higher = stronger binding
Target: RNA binding protein fox-1 homolog 2, RRM domain, GST-SBP tag (RBFOX2, Homo sapiens, UniProt O43251-10, residues 100-194)
Setting: natural RNA segment, single round, ends assumed
All sequences stand within: GGGAGUUCUACAGUCCGACGAUC … UGGAAUUCUCGGGUGCCAA
Target sequence (chain): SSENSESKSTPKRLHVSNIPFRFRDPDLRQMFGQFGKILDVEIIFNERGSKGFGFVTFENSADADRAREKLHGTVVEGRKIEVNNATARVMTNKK
Strand | RBNS enrichment (R)
UCAUACCAAUCUCUACGGGAAAGAGAGGUAGGAGAGGCUGCGAGGAAGCUUGGGUUCAAGCGUCACUCAUCUGUACAUAGUUGUAACUCCCAUGUGGAGUAUCAGUCGCU | 0.461
ACUGGGAAGAGCAUUAGCCAAGAACUUGUCUCUUUGAUCUGUUUCGUUAAGCUGAACCAGUGUCUUUACAUUUCAUUUGUACUUCAAAAAAUAUGCUAUUGUUUAGACUU | 0.288
UUUUCUUUUGUUUUUUGAAGUGUUGGGGUUUGGUUUUGUUUUUUGAGUCUUUUUUUUUUAAGUGAAAUUUAUUGAGGAAAAAUAUGUGAAGGACCUUCACUCUAAGAUGU | 0.995
AAUUUAGUUCAUCUUUCUUUAAAAGAACAUUAAAUGUAACCAUUUUGUCAGAUCCAUGUAUUUUGGAGCAUAAAAUGUAUGCUGUUGUGACCAAUAAAUAUAAAAUAUGG | 0.613
CCAGUUGGAUUACAGGAAUACUUGAAAGUUACUUUCUACCACUAUUAGAAAAUAUGAAGUCGCAUGCACUGGAUAUCUAUAUAUCAUUAGGUUUUUGUUGUGUUUUUGGU | 13.2
GAGACCAGAGAGACUGUAGUUCCCUAUUUUAACCUCAAUUAUGCAUUUGUCCCCCAACCCCACUGAGAACUAAAUGCUGUACCACAGAGCCGGGUGUGAACUAUGGUUUA | 1.15
UUUCCUGUAAAACCAGUCUCAUUUGGGCUUCUCAUCUGUGCUCACCUUGAACCUACAAACCUCCAUGGACAGUCAGCAGGUGGGAAGACAUGGUGUUUGCCCAUAUCACU | 0.247
UUAUCAUUUAUUUAUUGGUGCUACUGUUUAUCCGUAAUAAUUGUGGGGAAAAGAUAUUAACAUCACGUCUUUGUCUCUAGUGCAGUUUUUCGAGAUAUUCCGUAGUACAU | 0.445
GGGCGGCUGAGAGGCCGCCACUGAGCAUCUCUAUCUGUCAUUCCUUUAGCUAUUUAGGGACCAAAGGACCAAACUUUUUAUUGCAGAUGUGUAGCUCUAUGUCAAAUAGA | 0.294
UGUCAAUCACGCCUGUCCUCUCACGCCCACACCAAGUGCCCAAAGUGGGGAGGGACAAGAGAUUCUGGAAAGUGAGCCUCCCCAUACCCUCUUUUGUUCUCCCCACCCUG | 0.441
CCUGACUCCUGGGCCAUUUCCUAAUGGUACUGUAAGCCAAGUGGCUCGGCUUCUGCCUCUGUUUCCAAGCCCACCCCUUCCCGGAGGGAUAGGGACGGGUGCUUUCCUCU | 0.289
CAGGUCUUUCACUGCAGAUGGGGCUGCUGUGGGAGUUGGGACUUGUUUGUUUUCCUUUUUGAGUUCACGUUGGAUCCUUUCUUGUACAACUUCUGCGGAAGGACACAGUA | 0.915

Set 5 — method: protein-binding microarray; molecule type: double-stranded DNA, one strand shown; medium: in vitro; concentration: 250 nM; setting: 60-bp whole probe; with: salmon DNA 0.4 mg/ml; relative to: random background probes; direction: higher = stronger binding; all sequences stand within: GCCTAGCAC … GTCTTGATTCGCTTGACGCTGCTG
Target: Interferon regulatory factor 5, full length, phosphomimetic (IRF5, Homo sapiens, UniProt Q13568-2, residues 1-514, K96S/S451D/S453D/S456D/S462D)
Strand | log fluorescence
TTAGGACTGCTACTGCTCTAGTGCTAG | -0.497 z-score
GACAGTTTCGGACTGGGGACGTGCTAG | 6.78 z-score
GACGGTCTCCTCATCCTGACGTGCTAG | -0.2 z-score
TTATGACTGCTTATCCTTTAGTGCTAG | 0.124 z-score
TTATGTATCCTACTGCTTTAGTGCTAG | 0.36 z-score
TTAGAACTGAGTTTCTATTAGTGCTAG | 3.55 z-score
GACGAACTGAGTCGCGAGACGTGCTAG | -0.341 z-score
GTGTTTTGCCCTATTTAAGAGTGCTAG | 0.692 z-score
GACGGTTTCGGTTTCGGTACGTGCTAG | 11.6 z-score
TCCAATTACCTTTTCACTTTGTGCTAG | 1.54 z-score
TCACTTCTCAATTAAAAACTGTGCTAG | 0.74 z-score
CTTCCTCTTTCACTGGTCCTGTGCTAG | 2.83 z-score
CTAGATATCGGGTATCGATTAGTGCTA | 5.68 z-score
TTAGGTTTCGGACTGCGTTAGTGCTAG | 5.54 z-score
TTAGATTTCGGGCATCGATTAGTGCTA | 3.9 z-score
GACGGTTTCTTACTGCTGACGTGCTAG | 0.623 z-score
TTCATTTTCTGAATGTCCTCGTGCTAG | 1.54 z-score
GACGGTTTCGGTATAGGGACGTGCTAG | 9.66 z-score
GAGGGTATCGACACTGGGGACGTGCTA | 0.874 z-score
TTAGGACTGGACTTTCGGTCAGTGCTA | 8.99 z-score
GACGAACCGAGTTTCGAGACGTGCTAG | 4.66 z-score
GATGGTATCCTTTTCCTGACGTGCTAG | 0.587 z-score
AAAACTCTTTATTTAAGCTCGTGCTAG | 0.692 z-score
ATCTTCATGAAATTTTAGTAAGTGCTA | 0.91 z-score

Some of these lines once more (set 5):
Strand | log fluorescence
TTAGGACTGGACTTTCGGTCAGTGCTA | 8.99 z-score
GACAGTTTCGGACTGGGGACGTGCTAG | 6.78 z-score
GATGGTATCCTTTTCCTGACGTGCTAG | 0.587 z-score
TCACTTCTCAATTAAAAACTGTGCTAG | 0.74 z-score
CTTCCTCTTTCACTGGTCCTGTGCTAG | 2.83 z-score
AAAACTCTTTATTTAAGCTCGTGCTAG | 0.692 z-score
GTGTTTTGCCCTATTTAAGAGTGCTAG | 0.692 z-score
ATCTTCATGAAATTTTAGTAAGTGCTA | 0.91 z-score
GACGGTTTCTTACTGCTGACGTGCTAG | 0.623 z-score
TTCATTTTCTGAATGTCCTCGTGCTAG | 1.54 z-score
TTATGACTGCTTATCCTTTAGTGCTAG | 0.124 z-score
GAGGGTATCGACACTGGGGACGTGCTA | 0.874 z-score
TCCAATTACCTTTTCACTTTGTGCTAG | 1.54 z-score
GACGGTTTCGGTTTCGGTACGTGCTAG | 11.6 z-score
GACGGTTTCGGTATAGGGACGTGCTAG | 9.66 z-score
GACGAACTGAGTCGCGAGACGTGCTAG | -0.341 z-score
CTAGATATCGGGTATCGATTAGTGCTA | 5.68 z-score
TTAGATTTCGGGCATCGATTAGTGCTA | 3.9 z-score
